Results of several laboratories.
Numbered parts are unrelated; each lists some results of a single study. Several values in a cell are separate wells, animals, samples, runs or records.
Chain of UniProt P40818 (whole entry, looked up): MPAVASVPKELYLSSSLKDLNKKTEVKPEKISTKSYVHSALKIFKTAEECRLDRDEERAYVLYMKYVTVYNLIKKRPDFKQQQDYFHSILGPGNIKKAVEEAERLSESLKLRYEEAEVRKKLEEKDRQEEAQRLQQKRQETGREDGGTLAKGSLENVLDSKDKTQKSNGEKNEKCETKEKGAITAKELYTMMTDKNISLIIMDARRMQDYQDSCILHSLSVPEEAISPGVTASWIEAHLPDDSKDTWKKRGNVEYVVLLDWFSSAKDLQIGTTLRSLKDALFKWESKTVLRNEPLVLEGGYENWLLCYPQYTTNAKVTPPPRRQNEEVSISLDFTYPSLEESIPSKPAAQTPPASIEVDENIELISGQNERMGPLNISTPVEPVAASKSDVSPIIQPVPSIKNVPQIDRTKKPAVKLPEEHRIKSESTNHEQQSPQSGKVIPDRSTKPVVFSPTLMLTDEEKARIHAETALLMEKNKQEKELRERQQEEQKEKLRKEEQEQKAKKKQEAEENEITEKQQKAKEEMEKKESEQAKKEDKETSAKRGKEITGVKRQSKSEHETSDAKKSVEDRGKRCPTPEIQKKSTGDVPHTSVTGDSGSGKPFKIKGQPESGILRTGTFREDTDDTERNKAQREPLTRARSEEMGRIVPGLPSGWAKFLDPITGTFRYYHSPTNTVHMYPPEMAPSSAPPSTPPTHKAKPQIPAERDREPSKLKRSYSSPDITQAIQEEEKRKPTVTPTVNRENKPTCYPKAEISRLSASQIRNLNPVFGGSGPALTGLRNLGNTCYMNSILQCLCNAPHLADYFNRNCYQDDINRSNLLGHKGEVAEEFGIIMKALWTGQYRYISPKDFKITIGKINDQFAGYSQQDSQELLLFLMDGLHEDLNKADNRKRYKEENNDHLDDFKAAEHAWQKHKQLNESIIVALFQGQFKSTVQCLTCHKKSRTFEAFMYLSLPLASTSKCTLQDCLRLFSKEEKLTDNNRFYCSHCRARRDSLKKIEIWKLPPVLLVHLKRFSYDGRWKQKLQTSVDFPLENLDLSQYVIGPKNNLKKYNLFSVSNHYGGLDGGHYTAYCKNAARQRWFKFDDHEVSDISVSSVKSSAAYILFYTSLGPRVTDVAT
Chain of UniProt Q8N6M0 (whole entry, looked up): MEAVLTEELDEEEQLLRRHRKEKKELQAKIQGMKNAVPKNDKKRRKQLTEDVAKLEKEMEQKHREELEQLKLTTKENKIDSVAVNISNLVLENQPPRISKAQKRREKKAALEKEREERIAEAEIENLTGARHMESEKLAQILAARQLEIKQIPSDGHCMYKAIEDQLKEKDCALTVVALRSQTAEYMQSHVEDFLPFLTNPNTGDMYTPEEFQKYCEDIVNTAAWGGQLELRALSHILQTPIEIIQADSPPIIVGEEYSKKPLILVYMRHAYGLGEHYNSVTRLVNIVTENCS
Chain of UniProt P54252 (whole entry, looked up): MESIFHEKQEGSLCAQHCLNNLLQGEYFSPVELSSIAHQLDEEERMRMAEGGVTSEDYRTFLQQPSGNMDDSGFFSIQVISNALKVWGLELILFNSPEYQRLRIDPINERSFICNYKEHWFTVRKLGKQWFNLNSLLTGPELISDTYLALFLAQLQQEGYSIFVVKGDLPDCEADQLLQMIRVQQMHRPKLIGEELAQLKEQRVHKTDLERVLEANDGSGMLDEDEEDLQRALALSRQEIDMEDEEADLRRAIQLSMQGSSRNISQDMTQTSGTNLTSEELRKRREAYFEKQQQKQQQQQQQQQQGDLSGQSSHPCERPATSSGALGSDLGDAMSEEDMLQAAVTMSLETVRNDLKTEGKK
Chain of UniProt P21580 (whole entry, looked up): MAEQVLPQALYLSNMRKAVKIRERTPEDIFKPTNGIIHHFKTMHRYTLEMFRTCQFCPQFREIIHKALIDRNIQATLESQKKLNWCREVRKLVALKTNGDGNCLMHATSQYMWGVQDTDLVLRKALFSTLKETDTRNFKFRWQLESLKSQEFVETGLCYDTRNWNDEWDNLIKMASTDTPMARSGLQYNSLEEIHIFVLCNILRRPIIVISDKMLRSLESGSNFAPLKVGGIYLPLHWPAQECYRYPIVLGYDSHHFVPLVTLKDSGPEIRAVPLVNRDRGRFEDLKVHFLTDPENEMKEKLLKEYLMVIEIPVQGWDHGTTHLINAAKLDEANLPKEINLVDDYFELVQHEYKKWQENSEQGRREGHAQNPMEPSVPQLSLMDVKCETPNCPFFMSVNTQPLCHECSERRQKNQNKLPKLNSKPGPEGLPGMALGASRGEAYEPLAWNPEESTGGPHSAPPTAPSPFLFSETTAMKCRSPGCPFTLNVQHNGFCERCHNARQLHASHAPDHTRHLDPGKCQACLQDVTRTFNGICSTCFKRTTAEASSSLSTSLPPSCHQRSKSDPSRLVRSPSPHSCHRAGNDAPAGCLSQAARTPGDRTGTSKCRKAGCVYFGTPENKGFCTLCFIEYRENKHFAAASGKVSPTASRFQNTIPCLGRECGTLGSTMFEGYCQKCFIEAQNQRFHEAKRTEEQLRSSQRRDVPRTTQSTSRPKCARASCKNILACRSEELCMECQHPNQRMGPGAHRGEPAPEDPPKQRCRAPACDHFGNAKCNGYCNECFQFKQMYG

Sample 1 — read-out: peptide-MHC binding; molecule type: peptide; tested at: concentration not given
Target: HLA class I histocompatibility antigen, A alpha chain, allele A*26:03 (Homo sapiens, UniProt P04439)
Under binding, `EYYFRNEVF` is recorded as “inactive”.
`KELENEYYF`: binding “inactive”.
`KLDFIRNTK` — result for binding: “inactive”.
`YQAFRTKVH`: binding “inactive”.
`GRRPLKNRK` — result for binding: “inactive”.
`TIHLATAPK`: binding “inactive”.
`RRSLLAHVR`: binding “inactive”.
Under binding, `IATLYCVHQK` is recorded as “inactive”.

Sample 2 — Molecule: ubiquitin aldehyde; read-out: enzyme activity
USP2: Ubiquitin carboxyl-terminal hydrolase 2 (USP2, Homo sapiens, UniProt O75604)
Chain of UniProt O75604 (whole entry, looked up): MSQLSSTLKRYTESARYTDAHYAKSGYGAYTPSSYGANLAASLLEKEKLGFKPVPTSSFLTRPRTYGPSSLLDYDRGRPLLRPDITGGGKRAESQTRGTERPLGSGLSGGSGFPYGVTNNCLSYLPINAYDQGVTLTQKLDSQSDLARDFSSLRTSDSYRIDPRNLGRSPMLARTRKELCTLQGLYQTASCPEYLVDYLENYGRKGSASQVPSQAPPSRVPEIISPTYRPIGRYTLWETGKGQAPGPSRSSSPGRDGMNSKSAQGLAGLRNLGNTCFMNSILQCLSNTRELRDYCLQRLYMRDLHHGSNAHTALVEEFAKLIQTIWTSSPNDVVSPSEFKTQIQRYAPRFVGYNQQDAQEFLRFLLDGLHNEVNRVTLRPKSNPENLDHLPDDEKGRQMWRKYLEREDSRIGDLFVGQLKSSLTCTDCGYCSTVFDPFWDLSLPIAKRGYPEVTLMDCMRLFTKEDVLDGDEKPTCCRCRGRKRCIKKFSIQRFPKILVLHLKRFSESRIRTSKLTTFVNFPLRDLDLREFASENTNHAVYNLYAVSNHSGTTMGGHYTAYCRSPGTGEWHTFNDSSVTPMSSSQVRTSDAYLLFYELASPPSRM
UCHL1: Ubiquitin carboxyl-terminal hydrolase isozyme L1 (UCHL1, Homo sapiens, UniProt P09936)
Chain of UniProt P09936 (whole entry, looked up): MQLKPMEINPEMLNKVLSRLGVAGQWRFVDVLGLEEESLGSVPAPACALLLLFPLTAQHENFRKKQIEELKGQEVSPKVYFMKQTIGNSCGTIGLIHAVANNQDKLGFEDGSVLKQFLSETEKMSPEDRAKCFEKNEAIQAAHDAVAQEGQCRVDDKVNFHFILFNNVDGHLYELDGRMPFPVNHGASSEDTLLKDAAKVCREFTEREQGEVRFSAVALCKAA
For USP2; 0.1 µM: inhibition read 55%.
USP2; 0.01 µM — inhibition: 5%.
UCHL1; 0.1 µM — inhibition: 71%.
For Deubiquitinase OTUD6B (OTUD6B, Homo sapiens, UniProt Q8N6M0); 1 µM: inhibition read 100%.
For Ataxin-3 (ATXN3, Homo sapiens, UniProt P54252); 1 µM: inhibition read 67%.
The inhibition was 20% (UCHL1; 0.01 µM).
It gave 85% for inhibition (Ubiquitin carboxyl-terminal hydrolase 8 (USP8, Homo sapiens, UniProt P40818); 1 µM).
TNFAIP3 (Homo sapiens, UniProt P21580); 0.01 µM — inhibition: 54%.

Single results of other studies
CN(C)C(=O)Oc1ccc[n+](C)c1 gave a nuclei count of 0.254 z-score and 0.604 z-score (mouse MPNST tumor cells; high-content nuclear imaging, item: cell number; 10 µM, 12 h, mean of 2 replicates; relative to: plate mean, higher = more cells).
With C=CC[C@]1(O)CC[C@H]2[C@@H]3CCC4=CC(=O)CCC4=C3C=C[C@@]21C the viability was 54.5% (HaCaT; 100 µM, 18 h).
